Results collected from several papers.
Lines come from different studies, so protocols differ. Several values in a cell are separate wells, animals, samples, runs or records. ± marks the error that the study gave.
Cell line: RAW264.7

| Structure (SMILES) | test | test system | conditions | how to read | quantity | result |
| --- | --- | --- | --- | --- | --- | --- |
| COC1OC(C)C(OC2OC(C)C(OS(=O)(=O)O)C(OC3OC(C)C(OC4OC(C)C(OS(=O)(=O)O)C(OC5OC(C)C(OC6OC(C)C(OS(=O)(=O)O)C(OC7OC(C)C(OS(=O)(=O)O)C(OS(=O)(=O)O)C7OS(=O)(=O)O)C6OS(=O)(=O)O)C(OS(=O)(=O)O)C5OS(=O)(=O)O)C4OS(=O)(=O)O)C(OS(=O)(=O)O)C3OS(=O)(=O)O)C2OS(=O)(=O)O)C(OS(=O)(=O)O)C1OS(=O)(=O)O (stereo not shown) | CCK-8 |  | concentration not given, 24 h, high concentration | baseline: untreated cells | viability | 105% and 102% and 118% |
| CC(=O)OC1CCC2(OC1)OC(=CC#CC#CCO)C(OC(=O)CC(C)C)C2O (stereo not shown) | MTT | DMEM with 10% FBS | 50 µM, 18 h, added: LPS 1 µg/mL | baseline: DMSO | viability | 96.8 ± 9.1% |
| C/C=C(/NC(=O)CCCCCCC)C(=O)N/C(=C/C)C(=O)N[C@@H](C(=O)N[C@H](C(=O)Nc1ccc(C(=O)N[C@H](C(=O)O)[C@@H](C)O)cc1)c1ccc(O)cc1)[C@@H](O)C(C)C | cytotoxicity, MTT |  |  |  | IC50 | > 100 µM |
| CC#CC#C/C=C1/O[C@@]2(CCCCO2)[C@@H](O)[C@@H]1OC(C)=O | MTT | DMEM with 10% FBS | 50 µM, 18 h, added: LPS 1 µg/mL | baseline: DMSO | viability | 94.3 ± 6.8% |
| COc1cc(OC)c(-c2coc3c4c(cc(O)c3c2=O)OC(C)(C)C=C4)cc1OC | cell growth or viability, MTT |  | 100 µg/mL, 24 h |  | viability | 62.9% |
| C/C=C(/NC(=O)CCCCCCC)C(=O)N/C(=C/C)C(=O)N[C@@H](C(=O)N[C@H](C(=O)Nc1ccc(C(=O)N[C@H](C(=O)O)[C@@H](C)O)cc1)C(C)C)[C@@H](O)C(C)C | cytotoxicity, MTT |  |  |  | IC50 | 48.7 ± 3.2 µM |
| COC1OC(C)C(OS(=O)(=O)O)C(OC2OC(C)C(OS(=O)(=O)O)C(OC3OC(C)C(OS(=O)(=O)O)C(OC4OC(C)C(OS(=O)(=O)O)C(OC5OC(C)C(OS(=O)(=O)O)C(OC6OC(C)C(OS(=O)(=O)O)C(OC7OC(C)C(OS(=O)(=O)O)C(OC8OC(C)C(OS(=O)(=O)O)C(OS(=O)(=O)O)C8OS(=O)(=O)O)C7OS(=O)(=O)O)C6OS(=O)(=O)O)C5OS(=O)(=O)O)C4OS(=O)(=O)O)C3OS(=O)(=O)O)C2OS(=O)(=O)O)C1OS(=O)(=O)O (stereo not shown) | CCK-8 |  | concentration not given, 24 h, medium concentration | baseline: untreated cells | viability | 131% and 117% |
| COc1cc2c(cc1OC)-c1c(oc3c4c(cc(O)c3c1=O)OC(C)(C)C=C4)CO2 | cell growth or viability, MTT |  | 100 µg/mL, 24 h |  | viability | 72.2% |
| CC#CC#C/C=C1/O[C@@]2(CC[C@@H](OC(C)=O)CO2)[C@H](O)[C@H]1O | MTT | DMEM with 10% FBS | 50 µM, 18 h, added: LPS 1 µg/mL | baseline: DMSO | viability | 93.4 ± 11.8% |
| C=Cc1c(C)c2cc3nc(c(CC(=O)[O-])c4[n-]c(cc5nc(cc1[n-]2)C(C)=C5CC)c(C)c4C(=O)[O-])C(CCC(=O)[O-])C3C.[Cu+2].[Na+].[Na+].[Na+] (stereo not shown) | cyclophosphamide cytotoxicity, CellTiter-Glo |  | added: cyclophosphamide |  | lowest protective concentration | 5 to 10 µM |
| C/C=C(/NC(=O)CCCCCCC)C(=O)N/C(=C/C)C(=O)N[C@@H](C(=O)N[C@@H](CC(C)C)C(=O)Nc1ccc(C(=O)N[C@H](C(=O)O)[C@@H](C)O)cc1)[C@@H](O)C(C)C | cytotoxicity, MTT |  |  |  | IC50 | 94 ± 4 µM |
| CC#CC#C/C=C1/O[C@@]2(CC[C@@H](O)CO2)[C@H](O)[C@H]1OC(=O)CC(C)C | MTT | DMEM with 10% FBS | 50 µM, 18 h, added: LPS 1 µg/mL | baseline: DMSO | viability | 92.1 ± 11.2% |
| COC1OC(C)C(OC2OC(C)C(O)C(OC3OC(C)C(OC4OC(C)C(O)C(OC5OC(C)C(OC6OC(C)C(O)C(OC7OC(C)C(OC8OC(C)C(O)C(OS(=O)(=O)O)C8OS(=O)(=O)O)C(OS(=O)(=O)O)C7OS(=O)(=O)O)C6OS(=O)(=O)O)C(OS(=O)(=O)O)C5OS(=O)(=O)O)C4OS(=O)(=O)O)C(OS(=O)(=O)O)C3OS(=O)(=O)O)C2OS(=O)(=O)O)C(OS(=O)(=O)O)C1OS(=O)(=O)O (stereo not shown) | CCK-8 |  | concentration not given, 24 h, high concentration | baseline: untreated cells | viability | 82.5% and 93.6% and 79.3% |

For quick reference, copied from above:
| Structure (SMILES) | test | test system | conditions | how to read | quantity | result |
| --- | --- | --- | --- | --- | --- | --- |
| CC(=O)OC1CCC2(OC1)OC(=CC#CC#CCO)C(OC(=O)CC(C)C)C2O (stereo not shown) | MTT | DMEM with 10% FBS | 50 µM, 18 h, added: LPS 1 µg/mL | baseline: DMSO | viability | 96.8 ± 9.1% |
